Measurements collected from several papers.
Lines come from different studies, so protocols differ. “And” joins repeats or separate records; there may be more than shown. Numbers after ± are the reported error.
pbp2a: Penicillin-binding protein 2a (pbp2a, Streptococcus pneumoniae, UniProt Q8DNB6)
GRM2: Metabotropic glutamate receptor 2 (GRM2, Homo sapiens, UniProt Q14416)
Chain of UniProt P27361 (whole entry, looked up): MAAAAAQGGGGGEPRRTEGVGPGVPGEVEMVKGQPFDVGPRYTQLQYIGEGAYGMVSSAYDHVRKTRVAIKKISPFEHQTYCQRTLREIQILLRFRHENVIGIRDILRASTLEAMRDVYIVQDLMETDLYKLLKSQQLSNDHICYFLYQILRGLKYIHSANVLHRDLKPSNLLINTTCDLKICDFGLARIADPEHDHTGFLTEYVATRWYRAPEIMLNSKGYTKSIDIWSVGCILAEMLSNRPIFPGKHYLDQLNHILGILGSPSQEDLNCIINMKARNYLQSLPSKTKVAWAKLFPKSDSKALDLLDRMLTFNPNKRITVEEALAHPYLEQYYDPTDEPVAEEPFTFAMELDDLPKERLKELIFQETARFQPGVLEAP
Chain of UniProt Q14416 (whole entry, looked up): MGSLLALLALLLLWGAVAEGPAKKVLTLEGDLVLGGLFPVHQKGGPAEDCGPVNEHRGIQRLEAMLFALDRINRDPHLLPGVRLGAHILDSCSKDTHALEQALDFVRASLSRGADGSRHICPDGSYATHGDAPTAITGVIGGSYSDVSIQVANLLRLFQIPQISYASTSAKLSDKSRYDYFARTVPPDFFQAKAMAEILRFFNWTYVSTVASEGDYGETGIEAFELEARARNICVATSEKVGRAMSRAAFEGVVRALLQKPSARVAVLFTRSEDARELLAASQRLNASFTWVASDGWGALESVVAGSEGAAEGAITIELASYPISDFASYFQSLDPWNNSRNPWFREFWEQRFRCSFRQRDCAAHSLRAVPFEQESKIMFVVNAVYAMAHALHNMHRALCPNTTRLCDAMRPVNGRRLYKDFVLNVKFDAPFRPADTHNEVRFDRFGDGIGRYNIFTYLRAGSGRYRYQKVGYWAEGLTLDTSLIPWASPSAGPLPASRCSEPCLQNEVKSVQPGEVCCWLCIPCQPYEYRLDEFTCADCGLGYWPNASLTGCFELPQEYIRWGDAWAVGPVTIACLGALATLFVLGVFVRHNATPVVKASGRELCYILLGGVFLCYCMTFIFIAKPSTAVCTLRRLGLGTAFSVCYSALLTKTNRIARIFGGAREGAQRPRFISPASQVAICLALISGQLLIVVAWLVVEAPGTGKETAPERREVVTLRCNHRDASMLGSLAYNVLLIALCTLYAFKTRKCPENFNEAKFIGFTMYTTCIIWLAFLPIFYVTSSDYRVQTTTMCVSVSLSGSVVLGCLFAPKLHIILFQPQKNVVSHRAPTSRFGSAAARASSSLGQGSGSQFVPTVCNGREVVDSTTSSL
Chain of UniProt P78368 (whole entry, looked up): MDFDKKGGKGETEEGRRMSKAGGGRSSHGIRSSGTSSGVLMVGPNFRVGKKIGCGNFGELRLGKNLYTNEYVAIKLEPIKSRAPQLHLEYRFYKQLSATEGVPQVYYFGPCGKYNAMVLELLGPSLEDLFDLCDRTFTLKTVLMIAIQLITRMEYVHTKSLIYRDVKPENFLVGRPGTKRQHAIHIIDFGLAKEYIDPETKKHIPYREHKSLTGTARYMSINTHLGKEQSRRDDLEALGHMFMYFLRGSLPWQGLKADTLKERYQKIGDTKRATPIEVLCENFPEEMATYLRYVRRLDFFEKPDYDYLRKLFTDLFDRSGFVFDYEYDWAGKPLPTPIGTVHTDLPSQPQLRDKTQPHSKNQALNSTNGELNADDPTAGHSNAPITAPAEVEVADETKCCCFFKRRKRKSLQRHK
Chain of UniProt Q13224 (whole entry, unmodified, looked up): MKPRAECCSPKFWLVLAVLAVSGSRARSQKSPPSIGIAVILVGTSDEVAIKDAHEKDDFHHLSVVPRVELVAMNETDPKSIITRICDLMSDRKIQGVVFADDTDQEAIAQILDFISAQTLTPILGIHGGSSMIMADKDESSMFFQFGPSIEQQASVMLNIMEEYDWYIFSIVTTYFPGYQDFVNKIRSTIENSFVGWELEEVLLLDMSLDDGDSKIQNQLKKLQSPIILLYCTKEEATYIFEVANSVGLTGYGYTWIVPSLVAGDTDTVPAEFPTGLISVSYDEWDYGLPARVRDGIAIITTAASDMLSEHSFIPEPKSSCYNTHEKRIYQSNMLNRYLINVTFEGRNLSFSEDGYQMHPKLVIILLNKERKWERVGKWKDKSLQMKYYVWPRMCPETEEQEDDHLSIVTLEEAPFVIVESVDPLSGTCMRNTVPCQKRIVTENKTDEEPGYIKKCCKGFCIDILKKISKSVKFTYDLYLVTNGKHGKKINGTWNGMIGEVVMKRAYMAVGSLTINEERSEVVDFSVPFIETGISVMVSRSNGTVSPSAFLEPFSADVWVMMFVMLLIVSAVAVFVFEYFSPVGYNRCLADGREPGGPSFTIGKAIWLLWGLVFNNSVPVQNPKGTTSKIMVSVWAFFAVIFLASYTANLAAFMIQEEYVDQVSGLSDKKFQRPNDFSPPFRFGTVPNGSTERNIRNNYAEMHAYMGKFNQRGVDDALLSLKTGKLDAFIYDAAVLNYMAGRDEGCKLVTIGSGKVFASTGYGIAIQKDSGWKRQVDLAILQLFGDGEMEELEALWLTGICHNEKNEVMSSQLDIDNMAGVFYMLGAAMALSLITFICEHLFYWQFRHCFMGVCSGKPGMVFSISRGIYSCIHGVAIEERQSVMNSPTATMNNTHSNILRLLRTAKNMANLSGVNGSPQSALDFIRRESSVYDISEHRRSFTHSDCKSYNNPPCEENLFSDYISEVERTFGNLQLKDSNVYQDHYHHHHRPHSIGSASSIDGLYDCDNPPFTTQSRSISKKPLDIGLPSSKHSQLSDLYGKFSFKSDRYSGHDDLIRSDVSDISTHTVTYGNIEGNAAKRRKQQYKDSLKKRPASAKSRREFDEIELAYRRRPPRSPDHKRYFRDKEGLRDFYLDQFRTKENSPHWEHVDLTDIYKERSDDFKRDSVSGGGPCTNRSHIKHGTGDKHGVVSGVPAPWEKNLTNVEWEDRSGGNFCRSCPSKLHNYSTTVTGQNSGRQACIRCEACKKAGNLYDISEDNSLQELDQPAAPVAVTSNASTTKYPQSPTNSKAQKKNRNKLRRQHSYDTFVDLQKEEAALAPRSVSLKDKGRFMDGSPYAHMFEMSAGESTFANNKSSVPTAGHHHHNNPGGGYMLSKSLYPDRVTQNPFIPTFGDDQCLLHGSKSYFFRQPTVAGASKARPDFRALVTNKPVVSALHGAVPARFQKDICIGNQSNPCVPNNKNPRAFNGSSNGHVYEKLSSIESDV
Chain of UniProt O75676 (whole entry, looked up): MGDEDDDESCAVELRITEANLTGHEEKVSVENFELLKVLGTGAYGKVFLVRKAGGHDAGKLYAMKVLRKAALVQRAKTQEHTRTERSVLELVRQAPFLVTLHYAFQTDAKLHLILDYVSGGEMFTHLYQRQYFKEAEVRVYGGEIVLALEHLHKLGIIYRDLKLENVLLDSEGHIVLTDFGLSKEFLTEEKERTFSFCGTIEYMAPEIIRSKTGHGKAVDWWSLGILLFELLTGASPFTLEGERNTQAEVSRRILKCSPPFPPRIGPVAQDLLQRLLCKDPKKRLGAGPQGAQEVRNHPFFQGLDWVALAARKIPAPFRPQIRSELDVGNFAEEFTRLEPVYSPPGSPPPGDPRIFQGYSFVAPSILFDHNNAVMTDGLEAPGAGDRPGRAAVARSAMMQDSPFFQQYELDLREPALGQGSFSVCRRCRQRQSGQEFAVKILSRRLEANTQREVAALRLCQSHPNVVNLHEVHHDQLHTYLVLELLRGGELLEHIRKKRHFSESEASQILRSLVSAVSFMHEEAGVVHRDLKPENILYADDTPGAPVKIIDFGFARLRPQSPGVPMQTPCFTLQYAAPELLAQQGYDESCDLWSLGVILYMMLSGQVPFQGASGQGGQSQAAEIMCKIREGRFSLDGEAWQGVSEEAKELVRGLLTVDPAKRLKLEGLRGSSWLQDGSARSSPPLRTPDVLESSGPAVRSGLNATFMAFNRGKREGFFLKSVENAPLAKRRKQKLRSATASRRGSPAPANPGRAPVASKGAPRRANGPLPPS
Chain of UniProt P21917 (whole entry, looked up): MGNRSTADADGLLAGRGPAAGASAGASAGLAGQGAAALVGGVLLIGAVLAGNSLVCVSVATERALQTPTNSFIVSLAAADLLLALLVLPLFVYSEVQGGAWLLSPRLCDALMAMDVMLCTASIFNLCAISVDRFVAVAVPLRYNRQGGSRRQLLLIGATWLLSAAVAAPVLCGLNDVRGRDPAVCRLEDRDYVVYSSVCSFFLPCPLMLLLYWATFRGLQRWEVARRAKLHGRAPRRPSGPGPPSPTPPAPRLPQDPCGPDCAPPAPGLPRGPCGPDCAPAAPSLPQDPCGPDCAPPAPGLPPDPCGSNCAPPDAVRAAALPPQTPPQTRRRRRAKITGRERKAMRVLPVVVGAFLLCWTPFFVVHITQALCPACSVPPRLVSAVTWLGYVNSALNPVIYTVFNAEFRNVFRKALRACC
Chain of UniProt P00942 (whole entry, unmodified, looked up): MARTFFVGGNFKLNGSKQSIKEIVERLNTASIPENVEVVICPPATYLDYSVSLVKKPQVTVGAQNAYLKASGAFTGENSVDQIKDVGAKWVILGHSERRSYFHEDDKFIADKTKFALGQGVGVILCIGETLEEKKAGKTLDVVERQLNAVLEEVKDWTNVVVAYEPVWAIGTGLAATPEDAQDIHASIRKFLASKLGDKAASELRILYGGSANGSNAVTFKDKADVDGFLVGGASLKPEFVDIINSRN
Chain of UniProt P45983 (whole entry, looked up): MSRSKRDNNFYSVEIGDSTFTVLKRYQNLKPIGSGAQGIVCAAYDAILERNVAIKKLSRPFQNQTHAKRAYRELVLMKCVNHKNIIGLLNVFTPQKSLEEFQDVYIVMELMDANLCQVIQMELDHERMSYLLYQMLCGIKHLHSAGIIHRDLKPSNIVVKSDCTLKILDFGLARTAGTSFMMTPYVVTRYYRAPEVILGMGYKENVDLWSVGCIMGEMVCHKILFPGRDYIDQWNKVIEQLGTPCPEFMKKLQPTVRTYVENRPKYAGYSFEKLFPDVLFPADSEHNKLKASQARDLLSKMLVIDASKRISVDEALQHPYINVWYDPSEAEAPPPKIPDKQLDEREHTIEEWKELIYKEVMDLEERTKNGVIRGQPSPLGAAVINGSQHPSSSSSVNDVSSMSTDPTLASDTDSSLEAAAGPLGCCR

`CCCCCCCCCC(=O)NC1CCCC1` has a melting temperature of 46.2 °C (qscR (Pseudomonas aeruginosa, UniProt G3XD77); ligand, differential scanning fluorimetry; ligand complex).
For `O=C1c2ccccc2C(=O)C1C(=O)C(c1ccccc1)c1ccccc1`, activity read “inactive” (NR1H3 (Homo sapiens, UniProt Q13133); concentration not given).
`COc1ncccc1-c1cnn2ccc(N3CCN(C(=O)OC(C)C)CC3)nc12` has a remaining binding of 100% (Ribosomal protein S6 kinase alpha-4, N-terminal kinase domain (RPS6KA4, Homo sapiens, UniProt O75676); KINOMEscan binding; 1 µM; relative to: untreated control).
The -T∆S of `Oc1ccc(/C=C/c2cc(O)cc(O)c2)cc1` is reported as 0.388 kcal/mol (O-methyltransferase (Sorghum bicolor, UniProt A0A1B6PFV1, W279A); isothermal titration calorimetry; added: SFG).
`Cc1ccc([C@H]2C[C@@H]2COc2cc(NCc3nnc(C)s3)nc(C)n2)nc1` gave a selectivity ratio of 1.61e+06 fold (PDE5A (Homo sapiens, UniProt O76074); enzyme activity, inhibitor, IMAP fluorescence polarization; isoform PDE5A1; relative to: Ki target over Ki PDE10A2).
For `CN(C(=O)n1cnc(-c2ccc[n+]([O-])c2)c1)C1CCCCC1`, the fold change was -15 (Monoacylglycerol lipase ABHD6 (Abhd6, Rattus norvegicus, UniProt Q5XI64); enzyme activity, ABPP; rat, brain; oral, 100 mg/kg/day, 7 days; relative to: vehicle).
The kinact/KI of `NC(=O)c1cc[n+](CC2=C(C(=O)O)N3C(=O)[C@@H](NC(=O)[C@@H](c4ccccc4)S(=O)(=O)[O-])[C@H]3SC2)cc1` is reported as 370 ± 7 M⁻¹ s⁻¹ (pbp2a; inhibitor).
Under “decrease in α-glucosidase band quantity”, `COc1ccc(Nc2nn3c(-c4ccccc4)ccnc3c2C(=O)Nc2ccccc2)cc1` is recorded as 56.1% (α-glucosidase; SDS-PAGE; concentration not given, concentration equal to IC50).
Under “log2 fold change”, `COc1cc(N)c(Cl)cc1C(=O)NC1CN2CCC1CC2` (stereo not drawn) is recorded as 0.244 (ADGRF1 (Homo sapiens, UniProt Q5T601); β-arrestin recruitment, TANGO luminescence, measured: GPR110; concentration not given; relative to: basal luminescence).
The inhibition of `COc1ccc(N2C(=O)N(c3c(C)cccc3Cl)Cc3cnc(Nc4ccc(C5CCN(C)CC5)cc4OC)nc32)nc1` is reported as 32% (ALK (Homo sapiens, UniProt Q9UM73); kinase activity; 0.5 µM).
`Clc1cc2c(cc1Cl)Oc1cc(Cl)c(Cl)cc1O2` has an EC20 of 0.09 ± 0.05 nM (Uncharacterized protein (Takifugu rubripes, UniProt Q4JHL5); reporter gene, agonist, dual-luciferase; COS-7; 24 h).
For `COc1cc(Nc2ncc(F)c(Nc3ccc4c(n3)NC(=O)C(C)(C)O4)n2)cc(OC)c1OC`, the inhibition was 73% (BMPR2 (Homo sapiens, UniProt Q13873); KINOMEscan; 10 µM).
`O=C(O)Cc1c[nH]cn1` gave a fraction bound of 0.00019 (SLC6A6 (Homo sapiens, UniProt P31641, Y138A); binding, microscale thermophoresis; 32.7 nM, fitted curve; higher = more binding).
The binding score of `CC[C@H](CO)Nc1nc(NCc2ccc(-c3ccccn3)cc2)c2ncn(C(C)C)c2n1` is reported as 5.8 (CSNK1G2 (Homo sapiens, UniProt P78368); KINOMEscan competition binding; 10 µM, primary screen; direction not given).
`CC(C)[C@@H](O)CC[C@@H](C)[C@H]1CC[C@H]2[C@@H]3CC=C4C[C@@H](O)CC[C@]4(C)[C@H]3CC[C@]12C` has a current potentiation of 123 ± 7.1% (Glutamate NMDA receptor; GRIN1/GRIN2B (GRIN1/GRIN2B, Homo sapiens, UniProt Q05586+Q13224, F754A); ion current, positive allosteric modulator, two-electrode voltage clamp; Xenopus oocytes; 10 µM, GluN1-F754A mutant, added: 100 µM glutamate and glycine; relative to: absence of compound).
With `O=C[C@H](O)COP(=O)(O)O` the kcat was ~240 s⁻¹ (TPI1 (Saccharomyces cerevisiae, UniProt P00942, Y208S); substrate, GPDH/NADH-coupled; pH 4.9, 25 °C).
`Cc1cc(C)n2c1C=C1C=CC(CCC(=O)Nc3ccc(OCC(=O)N[C@@H]4C(=O)N5[C@@H]4SC(C)(C)[C@@H]5C(=O)[O-])cc3)=[N+]1[B-]2(F)F.[Na+]` has a kinact/KI of 8500 ± 3500 M⁻¹ s⁻¹ (pbp2a; whole-cell time course; live Streptococcus pneumoniae cells).
For `CN1CCN(c2cc(-c3ccncc3)c(-c3ccc4ccccc4c3)nn2)CC1`, the activation was -1.7% (DRD4 (Homo sapiens, UniProt P21917); agonist, FLIPR; 12.5 µM).
For `Nc1ncnc2c1ncn2[C@@H]1O[C@H](CO)[C@@H](OP(=O)(O)O)[C@H]1O`, “ligand concentration at rate minimum” read ~3 mM (Thermonuclease (nuc, Staphylococcus aureus, UniProt P00644); ligand-coupled folding kinetics; pH 7.0, 22 °C, 2.7 M urea).
With `C[C@H]1CN(c2n[nH]c3nc(N[C@H]4CC[C@H](NS(=O)(=O)CCC(F)(F)F)CC4)ncc23)CCO1` the relative abundance was 0.9 (Exportin-1 (XPO1, Homo sapiens, UniProt O14980); inhibitor, Kinobeads competition profiling; 0.16 µM; relative to: vehicle).
`CN(C(=O)n1cnc(-c2ccc[n+]([O-])c2)c1)C1CCCCC1` has an inhibition of 14% (GABAB1B receptor, human; binding; 10 µM, added: [3H]CGP-54626).
The TΔS of `CC12CCC(CC1)C(C)(C)O2` is reported as 18 ± 1.06 kcal/mol (1,8-cineole 2-endo-monooxygenase (cinA, Citrobacter braakii, UniProt Q8VQF6, Y81F); ITC; 25 °C, Y81F protein).
`O=C(Nc1cnccc1Cl)N1CCN(Cc2ccc3c(c2)OC(F)(F)O3)CC1` — result for “inhibition of binding”: 4% (GRM2; radioligand binding; 50 µM, added: [3H]LY341495).
The ΔH of `Nc1nc2c(ncn2[C@@H]2O[C@@H]3COP(=O)(O)O[C@H]4[C@@H](O)[C@H](n5cnc6c(=O)[nH]c(N)nc65)O[C@@H]4COP(=O)(O)O[C@H]3[C@H]2O)c(=O)[nH]1` is reported as 0.693 ± 0.0416 kcal/mol (Cell cycle histidine kinase CckA, R374A; cytoplasmic region (Caulobacter vibrioides, UniProt Q9X688, R374A); ITC; added: AMPPNP 5 mM).
`CCOC(=O)COc1ccc2c(=O)c3ccccc3oc2c1` has a reaction velocity of 0.0005 a.u. (ache (Electrophorus electricus, UniProt O42275); enzyme activity; 3.36 µM, added: substrate 0.43 mM; higher = faster reaction).
With `N#C[C@H](O[C@@H]1O[C@H](CO)[C@@H](O)[C@H](O)[C@H]1O)c1ccccc1` the Km was 4.87 ± 1.45 mM (BGLU7 (Oryza sativa, UniProt Q75I93); glucose release, substrate, HPLC; pH 6.0, 30 °C).
With `CCCC[C@H]1CN(c2cccc(OC(F)(F)F)c2)C(=O)CN1Cc1cncn1Cc1ccc(C#N)c(F)c1` the Ki was 4 nM (Protein farnesyltransferase (Cryptococcus neoformans, UniProt J9VSJ6+T2BPA1); uncompetitive inhibitor; added: 10 mM phosphate).
For `O=C(Nc1nncs1)C(F)(F)Br`, the ligand efficiency was 0.43 (MAPK8 (Homo sapiens, UniProt P45983); binding, isothermal titration calorimetry).
`COc1cc2c(NC3CCN(C)CC3)cc(-c3ccc(C)o3)nc2cc1OCCCN1CCCC1` gave an inhibition of -11.5% (DNMT1 (Homo sapiens, UniProt P26358); enzyme activity; 137.17 nM).
The kinase activity of `COC(=O)[C@@]1(O)C[C@H]2O[C@]1(C)n1c3ccccc3c3c4c(c5c6ccccc6n2c5c31)C(=O)NC4` is reported as 122% and 108% and 81.6% (MAPK3 (Homo sapiens, UniProt P27361); ADP-Glo; 35 µM, added: MBP substrate).
For `CCCCCCCCCC(=O)CC(=O)Nc1ccccc1`, the Hill slope was 1.3 (qscR, DNA-bound (Pseudomonas aeruginosa, UniProt G3XD77); DNA binding, ligand, EMSA; saturating ligand).
The Ki (inactivation) of `C[C@]1(COC(=O)c2cc(Cl)ccc2O)[C@H](C(=O)O)N2C(=O)/C(=C/c3ccccn3)[C@H]2S1(=O)=O` is reported as 1440 ± 634 nM (Beta-lactamase (blaOXA-33, Acinetobacter baumannii, UniProt Q8RLA6)).
`O=C(c1ccc(Cl)cc1)N1CCN2C(=O)N(OC(=O)N3CCOc4ccccc43)C(=O)C2C1` (stereo not drawn): “median protein ratio” 1.1 (PREPL (Homo sapiens, UniProt Q4J6C6); MS-based ABPP; SW-620 conditioned medium; 10 µM, 1 h, 37 °C; relative to: compound over DMSO, lower = more inhibition).
The thermal shift of `C[N+](C)(C)CCOS(=O)(=O)[O-]` is reported as 3.47 °C (uncharacterized protein (Pelagibacter ubique, UniProt Q4FMG4); differential scanning fluorimetry; Candidatus Pelagibacter ubique; in-house screen).
`O=C(Nc1cccnn1)N1CCC(=Cc2cccc(Oc3ccc(C(F)(F)F)cn3)c2)CC1`: “inhibition of binding” -4% (GRM2; radioligand binding; 10 µM, added: [3H]LY341495).
`[2H]c1c([2H])c([C@]2([2H])CCCN2C(=O)C(C)(C)Oc2ccc3cn[nH]c3c2)c([2H])c([2H])c1C([2H])([2H])[2H]` has a remaining binding of 88% (EPHB6 (Homo sapiens, UniProt O15197); KINOMEscan; 1 µM; relative to: DMSO control).

For quick reference, copied from above:
`Clc1cc2c(cc1Cl)Oc1cc(Cl)c(Cl)cc1O2` has an EC20 of 0.09 ± 0.05 nM (Uncharacterized protein (Takifugu rubripes, UniProt Q4JHL5); reporter gene, agonist, dual-luciferase; COS-7; 24 h).
For `COc1cc(Nc2ncc(F)c(Nc3ccc4c(n3)NC(=O)C(C)(C)O4)n2)cc(OC)c1OC`, the inhibition was 73% (BMPR2 (Homo sapiens, UniProt Q13873); KINOMEscan; 10 µM).
